Results from different studies.
DYRK2: Dual specificity tyrosine-phosphorylation-regulated kinase 2 (DYRK2, Homo sapiens, UniProt Q92630)
Chain of UniProt Q92630 (whole entry, looked up): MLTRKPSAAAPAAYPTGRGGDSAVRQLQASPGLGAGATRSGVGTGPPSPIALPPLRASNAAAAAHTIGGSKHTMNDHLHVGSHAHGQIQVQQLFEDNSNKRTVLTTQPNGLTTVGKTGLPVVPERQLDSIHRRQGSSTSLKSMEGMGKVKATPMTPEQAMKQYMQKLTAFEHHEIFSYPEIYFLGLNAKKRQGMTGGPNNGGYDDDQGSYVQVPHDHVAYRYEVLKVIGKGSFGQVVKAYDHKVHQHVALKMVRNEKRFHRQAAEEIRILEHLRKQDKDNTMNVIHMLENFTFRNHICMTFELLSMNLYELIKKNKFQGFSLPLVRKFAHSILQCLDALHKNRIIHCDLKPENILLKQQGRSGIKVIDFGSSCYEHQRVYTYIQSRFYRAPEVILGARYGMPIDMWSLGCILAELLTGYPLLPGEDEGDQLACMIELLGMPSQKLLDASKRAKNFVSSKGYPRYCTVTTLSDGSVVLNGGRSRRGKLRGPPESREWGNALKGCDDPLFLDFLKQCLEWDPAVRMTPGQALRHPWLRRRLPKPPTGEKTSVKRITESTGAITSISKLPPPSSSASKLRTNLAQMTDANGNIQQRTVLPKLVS
Chain of UniProt P32298 (whole entry, looked up): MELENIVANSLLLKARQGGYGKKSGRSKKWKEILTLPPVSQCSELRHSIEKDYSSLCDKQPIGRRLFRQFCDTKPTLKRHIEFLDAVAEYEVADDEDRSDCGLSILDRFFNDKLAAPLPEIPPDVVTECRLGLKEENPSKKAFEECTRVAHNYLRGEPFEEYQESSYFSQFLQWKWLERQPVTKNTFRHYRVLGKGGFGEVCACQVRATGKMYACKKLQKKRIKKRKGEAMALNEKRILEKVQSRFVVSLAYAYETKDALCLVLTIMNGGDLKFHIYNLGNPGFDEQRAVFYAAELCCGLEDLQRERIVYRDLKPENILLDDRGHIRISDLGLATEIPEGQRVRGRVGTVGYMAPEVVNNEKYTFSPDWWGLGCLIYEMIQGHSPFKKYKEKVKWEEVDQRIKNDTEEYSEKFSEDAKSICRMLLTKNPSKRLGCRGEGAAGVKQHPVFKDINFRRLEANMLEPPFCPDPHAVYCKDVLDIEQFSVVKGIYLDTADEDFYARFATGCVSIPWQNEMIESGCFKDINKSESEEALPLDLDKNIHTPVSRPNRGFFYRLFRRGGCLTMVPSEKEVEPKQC
Chain of UniProt Q15131 (whole entry, looked up): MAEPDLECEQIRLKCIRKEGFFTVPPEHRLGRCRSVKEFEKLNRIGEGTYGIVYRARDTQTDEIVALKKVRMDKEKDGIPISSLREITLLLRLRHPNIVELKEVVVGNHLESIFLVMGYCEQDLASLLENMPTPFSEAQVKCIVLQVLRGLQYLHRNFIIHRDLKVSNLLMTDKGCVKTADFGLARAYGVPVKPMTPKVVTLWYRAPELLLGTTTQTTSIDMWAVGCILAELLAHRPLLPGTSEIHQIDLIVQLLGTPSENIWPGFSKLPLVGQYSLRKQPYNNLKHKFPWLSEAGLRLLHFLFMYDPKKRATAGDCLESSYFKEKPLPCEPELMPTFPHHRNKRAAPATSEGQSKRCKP
Chain of UniProt P24723 (whole entry, looked up): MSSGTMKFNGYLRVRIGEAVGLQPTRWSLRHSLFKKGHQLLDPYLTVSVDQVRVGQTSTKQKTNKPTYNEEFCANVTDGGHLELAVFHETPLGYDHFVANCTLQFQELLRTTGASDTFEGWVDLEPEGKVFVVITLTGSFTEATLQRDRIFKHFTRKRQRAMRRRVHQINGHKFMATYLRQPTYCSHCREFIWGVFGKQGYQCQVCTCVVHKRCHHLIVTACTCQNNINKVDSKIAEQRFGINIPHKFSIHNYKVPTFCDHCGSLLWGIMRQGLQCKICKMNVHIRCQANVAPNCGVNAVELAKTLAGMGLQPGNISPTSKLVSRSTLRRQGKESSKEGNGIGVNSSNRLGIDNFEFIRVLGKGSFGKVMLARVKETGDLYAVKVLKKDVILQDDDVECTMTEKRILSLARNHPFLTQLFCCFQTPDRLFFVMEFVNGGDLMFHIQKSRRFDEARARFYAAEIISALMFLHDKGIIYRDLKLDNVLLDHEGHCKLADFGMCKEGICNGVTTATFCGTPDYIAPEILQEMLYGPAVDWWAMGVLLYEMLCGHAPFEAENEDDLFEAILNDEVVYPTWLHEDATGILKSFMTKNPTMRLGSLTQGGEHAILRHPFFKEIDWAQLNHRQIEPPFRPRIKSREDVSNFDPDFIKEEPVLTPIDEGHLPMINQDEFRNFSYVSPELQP
Chain of UniProt Q06418 (whole entry, looked up): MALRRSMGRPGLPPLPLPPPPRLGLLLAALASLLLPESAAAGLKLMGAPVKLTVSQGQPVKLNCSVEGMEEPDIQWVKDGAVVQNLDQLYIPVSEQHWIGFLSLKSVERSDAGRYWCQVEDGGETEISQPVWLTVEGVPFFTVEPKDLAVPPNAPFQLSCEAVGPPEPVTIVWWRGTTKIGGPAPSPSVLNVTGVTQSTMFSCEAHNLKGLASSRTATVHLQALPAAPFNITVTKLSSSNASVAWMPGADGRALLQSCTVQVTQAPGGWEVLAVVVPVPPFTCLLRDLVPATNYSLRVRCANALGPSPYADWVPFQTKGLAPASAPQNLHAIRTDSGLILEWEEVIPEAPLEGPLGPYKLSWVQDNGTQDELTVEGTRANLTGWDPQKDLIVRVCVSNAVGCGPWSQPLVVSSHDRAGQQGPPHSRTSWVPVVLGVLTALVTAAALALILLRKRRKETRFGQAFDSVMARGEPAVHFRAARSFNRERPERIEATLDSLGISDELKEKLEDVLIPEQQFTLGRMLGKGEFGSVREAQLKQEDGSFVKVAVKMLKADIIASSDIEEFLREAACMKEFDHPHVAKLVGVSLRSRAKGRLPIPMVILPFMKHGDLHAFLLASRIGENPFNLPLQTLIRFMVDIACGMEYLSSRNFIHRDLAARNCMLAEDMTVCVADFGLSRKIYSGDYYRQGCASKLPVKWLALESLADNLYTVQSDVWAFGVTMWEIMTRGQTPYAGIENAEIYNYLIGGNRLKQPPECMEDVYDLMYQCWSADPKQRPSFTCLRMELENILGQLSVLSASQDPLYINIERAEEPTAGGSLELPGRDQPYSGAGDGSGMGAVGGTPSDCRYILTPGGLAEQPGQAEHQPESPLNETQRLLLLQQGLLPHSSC
Chain of UniProt O94768 (whole entry, looked up): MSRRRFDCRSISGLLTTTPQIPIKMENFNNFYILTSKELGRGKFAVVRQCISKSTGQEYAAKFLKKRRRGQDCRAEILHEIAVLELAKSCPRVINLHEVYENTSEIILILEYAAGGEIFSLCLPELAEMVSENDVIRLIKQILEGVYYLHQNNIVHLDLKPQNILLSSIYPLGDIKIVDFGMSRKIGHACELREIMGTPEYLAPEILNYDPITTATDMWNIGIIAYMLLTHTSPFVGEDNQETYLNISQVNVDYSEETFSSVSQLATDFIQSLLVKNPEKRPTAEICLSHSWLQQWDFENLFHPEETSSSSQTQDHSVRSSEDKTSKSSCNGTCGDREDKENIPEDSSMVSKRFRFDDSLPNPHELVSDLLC
Chain of UniProt P57058 (whole entry, looked up): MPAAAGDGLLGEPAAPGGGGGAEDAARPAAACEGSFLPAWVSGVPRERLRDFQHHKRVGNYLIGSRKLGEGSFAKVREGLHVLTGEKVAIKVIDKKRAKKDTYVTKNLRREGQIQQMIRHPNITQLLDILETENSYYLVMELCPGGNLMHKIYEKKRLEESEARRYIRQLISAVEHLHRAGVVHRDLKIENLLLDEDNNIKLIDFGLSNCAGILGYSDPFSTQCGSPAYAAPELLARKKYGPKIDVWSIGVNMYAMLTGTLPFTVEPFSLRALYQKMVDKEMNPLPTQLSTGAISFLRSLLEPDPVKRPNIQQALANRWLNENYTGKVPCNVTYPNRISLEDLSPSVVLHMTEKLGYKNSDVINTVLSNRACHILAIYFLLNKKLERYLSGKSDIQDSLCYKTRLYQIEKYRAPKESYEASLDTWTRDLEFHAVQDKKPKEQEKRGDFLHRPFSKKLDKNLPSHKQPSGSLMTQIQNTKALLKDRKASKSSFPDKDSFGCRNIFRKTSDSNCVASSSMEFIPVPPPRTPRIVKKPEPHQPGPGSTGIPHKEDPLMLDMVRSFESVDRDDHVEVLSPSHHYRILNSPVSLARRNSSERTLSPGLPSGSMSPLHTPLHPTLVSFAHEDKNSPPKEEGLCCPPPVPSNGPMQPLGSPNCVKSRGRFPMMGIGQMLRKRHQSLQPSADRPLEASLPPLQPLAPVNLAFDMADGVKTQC
Chain of UniProt Q9Y5T5 (whole entry, looked up): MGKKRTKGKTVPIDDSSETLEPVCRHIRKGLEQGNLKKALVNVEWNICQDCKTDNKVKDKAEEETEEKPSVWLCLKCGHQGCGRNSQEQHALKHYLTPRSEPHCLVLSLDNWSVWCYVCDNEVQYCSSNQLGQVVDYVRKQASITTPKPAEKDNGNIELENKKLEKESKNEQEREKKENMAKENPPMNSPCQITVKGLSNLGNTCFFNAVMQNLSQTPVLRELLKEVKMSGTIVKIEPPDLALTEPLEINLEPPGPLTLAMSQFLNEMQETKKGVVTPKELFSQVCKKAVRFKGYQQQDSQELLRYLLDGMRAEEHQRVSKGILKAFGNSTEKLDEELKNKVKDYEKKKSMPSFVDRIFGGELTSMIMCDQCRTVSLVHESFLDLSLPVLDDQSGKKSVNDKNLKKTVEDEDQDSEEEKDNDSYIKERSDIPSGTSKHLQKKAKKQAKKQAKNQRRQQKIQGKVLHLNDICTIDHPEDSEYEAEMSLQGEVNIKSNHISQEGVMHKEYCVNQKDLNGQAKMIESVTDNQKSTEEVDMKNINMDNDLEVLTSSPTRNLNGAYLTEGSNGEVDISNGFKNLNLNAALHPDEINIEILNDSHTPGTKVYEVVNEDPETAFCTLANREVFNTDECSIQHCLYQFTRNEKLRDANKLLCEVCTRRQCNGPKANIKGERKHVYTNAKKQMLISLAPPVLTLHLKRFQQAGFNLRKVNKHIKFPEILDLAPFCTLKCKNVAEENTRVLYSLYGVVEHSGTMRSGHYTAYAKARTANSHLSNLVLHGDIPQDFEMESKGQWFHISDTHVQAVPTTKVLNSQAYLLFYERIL

SMILES	target or system	test	test system	conditions	scale	measurement	result
C=CC(=O)N1CCC[C@@H](n2nc(-c3ccc(Oc4ccccc4)cc3)c3c(N)ncnc32)C1	DYRK2			0.1 µM		remaining activity	97.3%
O=C(NC1CCC1)c1ccc2nc(-c3cccc(NS(=O)(=O)NCCN4CCCCC4)c3)cn2c1	Hormonally up-regulated neu tumor-associated kinase (HUNK, Homo sapiens, UniProt P57058)	enzyme activity		10 µM		remaining activity	94%
COc1cc(-c2cncc3c2CN(C)Cc2cc(N4CCNCC4)ccc2-3)cc(OC)c1OC	Tyrosine-protein kinase receptor TYRO3 (TYRO3, Homo sapiens, UniProt Q06418)	kinase activity		1 µM, human enzyme, with: ATP 10 µM	reference: DMSO control	remaining activity	102%
COc1cc(F)ccc1-c1ncnc(Nc2cccc(C[S@](C)(=N)=O)c2)n1	Serine/threonine-protein kinase MRCK beta (CDC42BPB, Homo sapiens, UniProt Q9Y5S2)	kinase activity		10 µM, with: 10 µM ATP		remaining activity	117%
OC[C@H]1O[C@@H](O[C@H]2[C@H](O)[C@@H](O)[C@H](O)O[C@@H]2CO)[C@H](O)[C@@H](O)[C@H]1O		binding, MIDAS equilibrium dialysis LC-MS	A2AR-BRIL thermostabilized	concentration not given	reference: no-protein control	log2 fold change	-0.0706
O=C1NC(=O)/C(=C/c2ccc(-c3ccc(F)cc3O)o2)S1	DYRK2	enzyme activity		10 µM		remaining activity	20%
COc1cc(N2CCN(C)CC2)ccc1Nc1nc(N)n(C(=O)NCc2c(Cl)cccc2Cl)n1	G protein-coupled receptor kinase 4 (GRK4, Homo sapiens, UniProt P32298)	enzyme activity		10 µM	reference: control	remaining activity	6.7%
Cc1cc(Nc2cc(N3CCN(C)CC3)nc(Sc3ccc(NC(=O)C4CC4)cc3)n2)[nH]n1	Protein kinase C eta type (PRKCH, Homo sapiens, UniProt P24723)	kinase activity, KinaseProfiler		0.03 µM, species human	reference: control	remaining activity	98%
COc1cc(N2CCN(C)CC2)ccc1Nc1nc(N)n(C(=S)NCc2c(Cl)cccc2Cl)n1	Serine/threonine-protein kinase 17B (STK17B, Homo sapiens, UniProt O94768)	enzyme activity		10 µM	reference: control	remaining activity	0.45%
COc1cc(Nc2ncc3c(n2)-c2ccc(Cl)cc2C(c2c(F)cccc2OC)=NC3)ccc1C(=O)O	PRKCD	kinase activity		1 µM		remaining activity	83%
O=C(O)CCC(=O)Nc1ccccc1	Ubiquitin carboxyl-terminal hydrolase 16, ZnF-UBD domain (USP16, Homo sapiens, UniProt Q9Y5T5)					Kd	> 1000 µM
CC(C)CC(=O)NCC(=O)O		binding, MIDAS equilibrium dialysis LC-MS	A2AR-BRIL thermostabilized	concentration not given	reference: no-protein control	log2 fold change	-0.79
O=C(O)c1ccc(Nc2ncc3c(n2)-c2ccc(Cl)cc2C(c2c(F)cccc2F)=NC3)cc1	human PKBα(h)	kinase activity		1 µM		remaining activity	101%
N[C@@H]1CC[C@@H](c2ccc(Cl)c(Cl)c2)c2ccccc21	Sodium-dependent dopamine transporter (SLC6A3, Homo sapiens, UniProt Q01959, F326A)	dopamine uptake		0.004 µM, 0.03333 h, F326A mutant, with: [3H]dopamine	reference: no inhibitor	remaining activity	40.8%
CNc1ncc2c(/C=C/C(=O)N3CCC(OC)CC3)nn(Cc3cccc(C(F)(F)F)c3)c2n1	Cyclin-dependent kinase 10, with cyclin Q (CDK10, Homo sapiens, UniProt Q15131)	inhibitor		1 µM	reference: control	remaining activity	99%
